Results of several laboratories.
Lines come from different studies, so protocols differ. Numbers after ± are the reported error.

Protein sequences, listed by entry. Tags and fused reporters are not part of them.
UniProt Q16539, whole entry: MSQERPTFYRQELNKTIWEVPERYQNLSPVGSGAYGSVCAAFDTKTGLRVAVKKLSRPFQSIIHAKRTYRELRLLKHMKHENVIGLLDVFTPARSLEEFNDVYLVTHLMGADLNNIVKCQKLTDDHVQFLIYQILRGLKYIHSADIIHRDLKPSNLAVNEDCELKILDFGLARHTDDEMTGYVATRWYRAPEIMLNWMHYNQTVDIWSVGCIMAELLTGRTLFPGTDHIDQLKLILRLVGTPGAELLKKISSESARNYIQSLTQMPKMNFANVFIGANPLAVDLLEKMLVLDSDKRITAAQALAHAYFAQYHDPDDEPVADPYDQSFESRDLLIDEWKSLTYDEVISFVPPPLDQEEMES

C=C(C)C(=O)Nc1ccc(-c2c(-c3ccc(Oc4nccc(C)n4)c(F)c3)c3c(N)ncnc3n2C)cc1
EC50 (EN; cell growth, CellTiter-Glo; 120 h): 601 nM

CC(C)CC(NC(=O)C(Cc1ccccc1)NC(=O)c1cnc(C(=O)NC(Cc2ccccc2)C(=O)NC(CC(C)C)B(O)O)cn1)B(O)O (stereo not shown)
IC50 (proteasome (human); trypsin-like activity, inhibitor, Proteasome-Glo; U-266; 24 h): > 18 nM

Cc1c(Cn2c(C)nc3c(C(=O)O)cc(N4CCOCC4)cc32)cccc1C(F)(F)F
EC50 (PC-3; cell growth, WST-8; 3 days): 9080 nM

CCN(CC)CCCC(C)Nc1cc(-c2ccccc2)nc2cc(OC)ccc12 (stereo not shown)
IC50 (K562; cytotoxicity, XTT; 96 h): 440 ± 570 nM

CC(=O)NCCCC[C@H](NC(=O)[C@H](CCCNC(=N)N)NC(=O)[C@H](C)NC(=O)[C@@H](NC(=O)[C@H](CCC(N)=O)NC(=O)[C@H](CCCCN)NC(=O)[C@@H](NC(=O)[C@H](CCCNC(=N)N)NC(=O)[C@H](C)N)[C@@H](C)O)[C@@H](C)O)C(=O)N[C@@H](CO)C(=O)N[C@H](C(=O)NCC(=O)O)[C@@H](C)O
interaction (human MORF PHD1/2 D289A; binding, NMR titration; 298 K): inhibited

CCOC(=O)c1c(-c2ccc(Cl)cc2Cl)n(-c2nc(-c3ccc(Cl)cc3)c3c(NC(=O)c4ccccc4)nnc-3[nH]2)[nH]c1=O
cell growth (786-0 renal cancer; NCI60 SRB; 10 µM): 7%

CCCCNC(=O)C(=O)NCCCC/C=C\CCCCCCC1=NOS(=O)N1 (stereo not shown)
EC50 (vasorelaxation, isometric tension; bovine coronary artery rings; together with: U46619 precontraction): 360 nM

CC/C=C\C/C=C\CCC/C=C/C=C/C=C\CCCC(=O)O
G1 phase cells (HL-60; flow cytometry; 12.5 µM, 24 h): 46.5%

N#Cc1c(-c2ccc(Cl)cc2Cl)n(-c2nc(-c3ccc(Cl)cc3)c3c(NC(=O)c4ccccc4)nnc-3[nH]2)[nH]c1=O
cell growth (SW-620; SRB; 10 µM; baseline: untreated): 22.9%

CC(C)C[C@H](NC(=O)[C@H](C)NC(=O)[C@H](CCCNC(=N)N)NC(=O)[C@H](CCCNC(=N)N)NC(=O)[C@H](CCCNC(=N)N)NC(=O)[C@H](C)NC(=O)[C@H](CC(C)C)NC(=O)[C@H](CCCNC(=N)N)NC(=O)[C@H](CO)NC(=O)[C@H](CCCCN)NC(=O)[C@H](CO)NC(=O)Cn1cc(COC(=O)[C@]2(C)C=C(C(=O)OC(C)(C)C)C(=O)CC2)nn1)C(=O)O
normalized kinase activity (MAPK14 (Homo sapiens, UniProt Q16539); enzyme activity, inhibitor, D-SENSOR; 0.823 µM): 0.319

Excerpt of the above:
CCOC(=O)c1c(-c2ccc(Cl)cc2Cl)n(-c2nc(-c3ccc(Cl)cc3)c3c(NC(=O)c4ccccc4)nnc-3[nH]2)[nH]c1=O
cell growth (786-0 renal cancer; NCI60 SRB; 10 µM): 7%
